Experimental data from different studies.
Every numbered part comes from another study and shows a few of its results, in no order.
UniProt P04629, sequence (whole entry, looked up): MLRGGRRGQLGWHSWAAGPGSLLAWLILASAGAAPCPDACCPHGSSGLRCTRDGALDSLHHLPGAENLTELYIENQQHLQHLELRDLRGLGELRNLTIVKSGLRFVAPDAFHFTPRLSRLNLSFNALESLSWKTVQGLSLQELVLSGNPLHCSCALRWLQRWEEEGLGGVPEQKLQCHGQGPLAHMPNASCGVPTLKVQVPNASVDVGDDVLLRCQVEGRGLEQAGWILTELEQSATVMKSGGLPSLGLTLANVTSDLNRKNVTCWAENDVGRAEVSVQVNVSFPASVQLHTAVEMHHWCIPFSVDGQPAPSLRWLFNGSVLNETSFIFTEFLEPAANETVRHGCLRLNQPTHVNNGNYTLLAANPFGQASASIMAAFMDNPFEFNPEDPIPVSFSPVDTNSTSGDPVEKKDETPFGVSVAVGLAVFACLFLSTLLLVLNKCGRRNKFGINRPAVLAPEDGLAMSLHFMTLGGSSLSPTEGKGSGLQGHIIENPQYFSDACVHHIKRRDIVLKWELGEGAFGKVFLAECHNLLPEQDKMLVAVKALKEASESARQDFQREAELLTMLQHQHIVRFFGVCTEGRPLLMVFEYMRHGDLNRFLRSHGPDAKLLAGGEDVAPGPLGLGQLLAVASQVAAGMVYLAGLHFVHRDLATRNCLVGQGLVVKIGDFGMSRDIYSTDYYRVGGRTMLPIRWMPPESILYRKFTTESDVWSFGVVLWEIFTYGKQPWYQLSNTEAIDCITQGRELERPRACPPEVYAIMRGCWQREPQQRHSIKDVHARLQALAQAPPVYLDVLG
UniProt P06241, sequence (whole entry, looked up): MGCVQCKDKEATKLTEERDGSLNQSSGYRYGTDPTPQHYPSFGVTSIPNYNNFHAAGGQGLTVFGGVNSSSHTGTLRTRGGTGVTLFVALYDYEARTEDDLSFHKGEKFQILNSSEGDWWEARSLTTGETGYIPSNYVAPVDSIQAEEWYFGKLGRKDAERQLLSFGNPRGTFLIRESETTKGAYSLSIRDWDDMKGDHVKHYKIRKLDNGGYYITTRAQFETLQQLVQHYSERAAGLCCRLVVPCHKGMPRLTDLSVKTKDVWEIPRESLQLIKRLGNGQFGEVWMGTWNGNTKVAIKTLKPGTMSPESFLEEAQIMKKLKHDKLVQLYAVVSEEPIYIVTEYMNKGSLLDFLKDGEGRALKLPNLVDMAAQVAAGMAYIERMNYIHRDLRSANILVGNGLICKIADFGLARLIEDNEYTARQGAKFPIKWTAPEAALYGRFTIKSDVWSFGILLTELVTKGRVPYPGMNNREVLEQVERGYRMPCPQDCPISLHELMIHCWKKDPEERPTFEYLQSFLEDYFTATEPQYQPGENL
UniProt P49760, sequence (whole entry, looked up): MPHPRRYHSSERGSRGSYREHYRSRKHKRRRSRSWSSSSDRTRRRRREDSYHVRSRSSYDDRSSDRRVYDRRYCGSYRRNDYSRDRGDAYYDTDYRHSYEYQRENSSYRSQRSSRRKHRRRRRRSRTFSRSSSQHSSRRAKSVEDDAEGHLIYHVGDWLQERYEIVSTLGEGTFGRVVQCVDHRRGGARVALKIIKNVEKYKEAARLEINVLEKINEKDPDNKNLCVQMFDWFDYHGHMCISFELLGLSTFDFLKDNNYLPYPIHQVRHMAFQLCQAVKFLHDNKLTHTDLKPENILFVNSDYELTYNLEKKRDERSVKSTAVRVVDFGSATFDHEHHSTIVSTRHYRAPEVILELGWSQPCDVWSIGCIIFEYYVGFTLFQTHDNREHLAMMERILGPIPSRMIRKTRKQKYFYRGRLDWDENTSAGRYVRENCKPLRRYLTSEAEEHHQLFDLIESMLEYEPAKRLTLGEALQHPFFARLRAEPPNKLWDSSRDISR
UniProt Q04759, sequence (whole entry, looked up): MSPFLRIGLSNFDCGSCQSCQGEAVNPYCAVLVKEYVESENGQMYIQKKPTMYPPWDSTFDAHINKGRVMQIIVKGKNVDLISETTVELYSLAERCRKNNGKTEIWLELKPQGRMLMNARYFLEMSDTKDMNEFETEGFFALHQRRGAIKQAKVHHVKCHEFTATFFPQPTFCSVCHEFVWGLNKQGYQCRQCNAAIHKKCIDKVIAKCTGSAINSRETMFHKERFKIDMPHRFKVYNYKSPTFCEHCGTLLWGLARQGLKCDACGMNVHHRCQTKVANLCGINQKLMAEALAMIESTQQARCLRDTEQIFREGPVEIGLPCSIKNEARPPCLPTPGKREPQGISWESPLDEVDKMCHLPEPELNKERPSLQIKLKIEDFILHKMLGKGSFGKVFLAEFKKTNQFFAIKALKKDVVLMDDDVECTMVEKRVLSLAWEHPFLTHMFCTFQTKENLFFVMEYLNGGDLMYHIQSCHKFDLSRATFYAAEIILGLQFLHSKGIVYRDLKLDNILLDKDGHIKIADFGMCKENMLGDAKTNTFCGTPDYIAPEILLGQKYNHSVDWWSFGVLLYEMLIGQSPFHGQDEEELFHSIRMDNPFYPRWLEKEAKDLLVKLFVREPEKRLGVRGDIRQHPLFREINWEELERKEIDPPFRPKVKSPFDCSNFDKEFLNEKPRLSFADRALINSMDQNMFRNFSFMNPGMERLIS
UniProt Q9BZJ7, sequence (whole entry, looked up): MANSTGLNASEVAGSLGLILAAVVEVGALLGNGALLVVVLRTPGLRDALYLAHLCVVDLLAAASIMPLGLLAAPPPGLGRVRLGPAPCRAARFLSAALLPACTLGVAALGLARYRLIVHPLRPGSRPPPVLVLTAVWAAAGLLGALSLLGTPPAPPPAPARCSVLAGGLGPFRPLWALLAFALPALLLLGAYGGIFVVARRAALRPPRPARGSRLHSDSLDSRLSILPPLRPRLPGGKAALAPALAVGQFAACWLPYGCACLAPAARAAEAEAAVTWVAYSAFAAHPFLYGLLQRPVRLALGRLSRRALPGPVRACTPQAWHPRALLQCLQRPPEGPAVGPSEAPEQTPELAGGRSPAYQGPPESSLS
UniProt Q8TDV5, sequence (whole entry, looked up): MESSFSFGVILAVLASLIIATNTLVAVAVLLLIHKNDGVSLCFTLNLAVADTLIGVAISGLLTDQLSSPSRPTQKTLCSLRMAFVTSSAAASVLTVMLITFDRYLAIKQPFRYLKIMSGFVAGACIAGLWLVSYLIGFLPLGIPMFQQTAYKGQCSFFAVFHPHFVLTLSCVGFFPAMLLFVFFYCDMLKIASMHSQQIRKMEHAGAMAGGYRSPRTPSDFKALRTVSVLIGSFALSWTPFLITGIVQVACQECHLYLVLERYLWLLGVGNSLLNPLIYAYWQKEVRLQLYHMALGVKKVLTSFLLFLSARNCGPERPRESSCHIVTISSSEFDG
UniProt Q06187, sequence (whole entry, looked up): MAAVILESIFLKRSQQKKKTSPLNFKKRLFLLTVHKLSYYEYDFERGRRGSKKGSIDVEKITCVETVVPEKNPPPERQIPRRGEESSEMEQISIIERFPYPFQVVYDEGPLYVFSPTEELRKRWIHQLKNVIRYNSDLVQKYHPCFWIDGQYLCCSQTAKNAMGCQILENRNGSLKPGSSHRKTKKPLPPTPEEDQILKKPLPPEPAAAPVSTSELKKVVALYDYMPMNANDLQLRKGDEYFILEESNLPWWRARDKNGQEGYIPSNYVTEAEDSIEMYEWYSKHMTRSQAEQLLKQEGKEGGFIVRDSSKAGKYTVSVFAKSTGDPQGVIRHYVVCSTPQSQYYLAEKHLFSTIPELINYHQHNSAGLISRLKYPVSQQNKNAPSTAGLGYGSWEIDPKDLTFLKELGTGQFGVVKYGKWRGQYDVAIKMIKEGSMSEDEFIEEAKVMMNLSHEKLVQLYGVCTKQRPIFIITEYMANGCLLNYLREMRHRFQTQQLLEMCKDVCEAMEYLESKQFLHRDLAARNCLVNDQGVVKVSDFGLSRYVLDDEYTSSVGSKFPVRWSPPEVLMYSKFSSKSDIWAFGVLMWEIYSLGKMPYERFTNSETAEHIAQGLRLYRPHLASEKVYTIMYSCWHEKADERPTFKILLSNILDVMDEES
UniProt P15735, sequence (whole entry, looked up): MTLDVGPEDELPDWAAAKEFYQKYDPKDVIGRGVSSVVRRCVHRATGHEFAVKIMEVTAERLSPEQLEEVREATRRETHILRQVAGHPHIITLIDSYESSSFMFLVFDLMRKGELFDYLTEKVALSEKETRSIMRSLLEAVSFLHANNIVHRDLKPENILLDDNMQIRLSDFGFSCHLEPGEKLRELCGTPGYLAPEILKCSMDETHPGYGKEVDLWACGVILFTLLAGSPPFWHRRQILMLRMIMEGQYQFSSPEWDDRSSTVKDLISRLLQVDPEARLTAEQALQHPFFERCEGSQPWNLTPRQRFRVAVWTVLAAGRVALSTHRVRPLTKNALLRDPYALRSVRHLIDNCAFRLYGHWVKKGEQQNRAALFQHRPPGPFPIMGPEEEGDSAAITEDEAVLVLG
UniProt P51617, sequence (whole entry, looked up): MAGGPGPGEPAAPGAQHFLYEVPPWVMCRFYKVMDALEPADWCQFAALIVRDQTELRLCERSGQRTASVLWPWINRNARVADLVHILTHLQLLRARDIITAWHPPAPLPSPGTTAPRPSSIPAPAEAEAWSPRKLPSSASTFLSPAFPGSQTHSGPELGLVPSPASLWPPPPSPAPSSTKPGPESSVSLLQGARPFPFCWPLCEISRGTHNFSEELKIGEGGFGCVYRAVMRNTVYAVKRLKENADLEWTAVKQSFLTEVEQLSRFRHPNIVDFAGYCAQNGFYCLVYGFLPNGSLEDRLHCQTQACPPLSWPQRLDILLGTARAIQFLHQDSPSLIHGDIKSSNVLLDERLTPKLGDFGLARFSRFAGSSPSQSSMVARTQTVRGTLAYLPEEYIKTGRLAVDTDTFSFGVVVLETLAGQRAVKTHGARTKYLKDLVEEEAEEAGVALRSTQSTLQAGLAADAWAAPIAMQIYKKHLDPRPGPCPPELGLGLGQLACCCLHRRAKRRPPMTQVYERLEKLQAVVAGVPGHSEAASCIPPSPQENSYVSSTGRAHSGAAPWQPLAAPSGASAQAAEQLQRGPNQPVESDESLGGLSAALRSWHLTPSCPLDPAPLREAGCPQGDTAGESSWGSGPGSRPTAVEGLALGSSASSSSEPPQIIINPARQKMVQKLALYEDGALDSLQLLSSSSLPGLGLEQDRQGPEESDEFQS

Set 1
Structure (SMILES): CC1=C(C#N)[C@@H](c2ccc3[nH]nc(C)c3c2)C(C#N)=C(c2ccc(Cl)cc2)N1
Observed: cell-free assay
Technique: competition with immobilised ligand
Tested at: 1 µM
target	remaining binding [%]
CDK8 (Homo sapiens, UniProt P49336)	93.2
Tyrosine-protein kinase ABL1, phosphorylated (ABL1, Homo sapiens, UniProt P00519, T315I)	88.1
IRAK4 (Homo sapiens, UniProt Q9NWZ3)	100
PAK3 (Homo sapiens, UniProt O75914)	100
RPS6KB1 (Homo sapiens, UniProt P23443)	62.2
ACVR1 (Homo sapiens, UniProt Q04771)	100
NUAK2 (Homo sapiens, UniProt Q9H093)	100
IRAK1 (Homo sapiens, UniProt P51617)	100
Tyrosine-protein kinase ABL1, non-phosphorylated (ABL1, Homo sapiens, UniProt P00519, Q252H)	43.8
SIK3 (Homo sapiens, UniProt Q9Y2K2)	100
NEK1 (Homo sapiens, UniProt Q96PY6)	100
OXSR1 (Homo sapiens, UniProt O95747)	100
TIE1 (Homo sapiens, UniProt P35590)	76.4
Tyrosine-protein kinase JAK2, JH1 (JAK2, Homo sapiens, UniProt O60674)	100
NTRK1 (Homo sapiens, UniProt P04629)	84.6
PHKG1 (Homo sapiens, UniProt Q16816)	100
PIM3 (Homo sapiens, UniProt Q86V86)	100
FYN (Homo sapiens, UniProt P06241)	69
GRK7 (Homo sapiens, UniProt Q8WTQ7)	100
BTK (Homo sapiens, UniProt Q06187)	99.9
PHKG2 (Homo sapiens, UniProt P15735)	100
RET (Homo sapiens, UniProt P07949, V804L)	96.4
PIK3CA (Homo sapiens, UniProt P42336)	100
GRK4 (Homo sapiens, UniProt P32298)	100
PAK4 (Homo sapiens, UniProt O96013)	100

Set 2
SMILES: NC(N)=NC(=O)c1nc(Cl)c(N2CCCCCC2)nc1N
Observed: β-arrestin recruitment
Mode: agonist
Technique: PRESTO-Tango
Tested at: 10 µM
Reference: untreated
target	fold over basal
HCAR3 (Homo sapiens, UniProt P49019)	0.75 fold
CCKAR (Homo sapiens, UniProt P32238)	1.01
HTR5A (Homo sapiens, UniProt P47898)	1.25
GPBAR1 (Homo sapiens, UniProt Q8TDU6)	0.91 fold
GRM2 (Homo sapiens, UniProt Q14416)	0.94 fold
GRPR (Homo sapiens, UniProt P30550)	0.98 fold
Mas-related G-protein coupled receptor member X4 (Homo sapiens, UniProt Q96LA9)	1.34
GPR119 (Homo sapiens, UniProt Q8TDV5)	0.65
QRFPR (Homo sapiens, UniProt Q96P65)	0.77
G-protein coupled receptor family C group 5 member B (GPRC5B, Homo sapiens, UniProt Q9NZH0)	0.88
G-protein coupled receptor 62 (GPR62, Homo sapiens, UniProt Q9BZJ7)	1.26
BRS3 (Homo sapiens, UniProt P32247)	3.21
CCR1 (Homo sapiens, UniProt P32246)	2.02
N-formyl peptide receptor 3 (Homo sapiens, UniProt P25089)	0.47 fold
NPY1R (Homo sapiens, UniProt P25929)	0.79
RXFP4 (Homo sapiens, UniProt Q8TDU9)	1.36
GPR101 (Homo sapiens, UniProt Q96P66)	1.13

Set 3
SMILES: O=C(c1ccccc1)c1ccc(N2CCOCC2)cc1O
Observed: enzyme activity
Mode: inhibitor
Tested at: 0.5 µM
Reference: control
target	remaining activity [%]
PRKCQ (Homo sapiens, UniProt Q04759)	92.5
EPHA2 (Homo sapiens, UniProt P29317)	104
TEC (Homo sapiens, UniProt P42680)	119
IGF1R (Homo sapiens, UniProt P08069)	106
CSNK1D (Homo sapiens, UniProt P48730)	100
FLT1 (Homo sapiens, UniProt P17948)	97.4
TYRO3 (Homo sapiens, UniProt Q06418)	101
SRPK1 (Homo sapiens, UniProt Q96SB4)	94.2
MAP3K20 (Homo sapiens, UniProt Q9NYL2)	95
RPS6KA3 (Homo sapiens, UniProt P51812)	104
CAMK1 (Homo sapiens, UniProt Q14012)	97.5
Cyclin-dependent kinase 2, with cyclin E (CDK2, Homo sapiens, UniProt P24941)	99.6
CLK2 (Homo sapiens, UniProt P49760)	106
SGK2 (Homo sapiens, UniProt Q9HBY8)	105
CSNK1E (Homo sapiens, UniProt P49674)	97.7
JAK1 (Homo sapiens, UniProt P23458)	108
SIK2 (Homo sapiens, UniProt Q9H0K1)	100
MUSK (Homo sapiens, UniProt O15146)	101
CLK1 (Homo sapiens, UniProt P49759)	108
PAK1 (Homo sapiens, UniProt Q13153)	91.8

Set 4
Species: mouse
Sample: microsomes or S9
Tested at: 2 µM
Time: 0.5 h
Structure (SMILES)	remaining compound [%]
Cc1nc2c(c(C)c(C)n2CCC2CCO2)c(-c2cc(F)c3c(c2C)CCCO3)c1[C@H](OC(C)(C)C)C(=O)O (stereo partly drawn)	45.1
C=CCn1c(CN2C(=O)c3cccc4cccc(c34)C2=O)nnc1SCC(=O)OCC	99.2
CC1(C)Cc2ccccc2C(C2=NC(C)(C)Cc3ccccc32)=N1	< 1
CN(C)c1ccc2c(c1)[C@H](CC(=O)c1ccccc1)C(C(=O)OCc1ccccc1)(C(=O)OCc1ccccc1)C[C@H]2c1ccccc1	54.1
CC(C)c1nc(NC(=O)c2cc(-c3ccco3)n[nH]2)n[nH]1	48.6
CCn1cc(NS(=O)(=O)c2cn(C)c(=O)n(C)c2=O)ccc1=O	94.2
Cc1cc(C(=O)NCCCN2CCCC2=O)cs1	50.6
Cc1cc2nc(CN(C)c3ccccc3)cc(=O)n2o1	51.4
Cc1cc(C)n2nc(C(=O)N3CCCC34CC=CC4)cc2n1	45.2
COc1cc(=O)[nH]cc1C(=O)N1CCC(=O)N2CCCC21 (stereo not drawn)	> 99
C/C=C/Cn1c(C(=O)c2ccccc2)c(C(C)C)c(=O)[nH]c1=O	99.4
O=C1C2C3C=CC(O3)C2C(=O)N1Nc1ccccc1 (stereo not drawn)	45.6
Cn1ccnc1-c1[nH]c(-c2ccc(Cl)cc2)nc1-c1ccc(C(C)(C)C)cc1	8.23
CCCC1(CCC)c2cc(NC(=O)[C@@H]3CCCN3C(=O)OC(C)(C)C)ccc2-c2ccc(NC(=O)[C@@H]3CCCN3C(=O)OC(C)(C)C)cc21	19.2
CN(Cc1nccs1)S(=O)(=O)c1ccc2c(c1)CN(S(C)(=O)=O)CC2	13
COc1cc(OC)c(NC(=O)N2Cc3c(sc4c3CCCC4)-n3cccc3C2C)cc1Cl (stereo not drawn)	< 1

For quick reference, copied from above (set 2):
target	fold over basal
BRS3 (Homo sapiens, UniProt P32247)	3.21
CCR1 (Homo sapiens, UniProt P32246)	2.02
N-formyl peptide receptor 3 (Homo sapiens, UniProt P25089)	0.47 fold
NPY1R (Homo sapiens, UniProt P25929)	0.79
RXFP4 (Homo sapiens, UniProt Q8TDU9)	1.36
GPR101 (Homo sapiens, UniProt Q96P66)	1.13
